Measured values of several laboratories.
Lines come from different studies, so protocols differ. “And” joins repeats or separate records; there may be more than shown. ± gives the spread as reported.

Compound	test	system	conditions	endpoint	result
COc1cc2ccnc(Cc3ccc(O[11CH3])c(OC)c3)c2cc1OC	PET	rhesus macaque, caudate	intravenous, 3 min	peak SUV	~2.5
CC[C@H](C)[C@H](NC(=O)[C@H](CCCCN)NC(=O)CNC(=O)[C@H](CC(C)C)NC(=O)[C@H](Cc1ccccc1)NC(=O)[C@H](CCCCN)NC(=O)[C@H](CO)NC(=O)[C@H](Cc1ccccc1)NC(=O)[C@H](Cc1c[nH]c2ccccc12)NC(=O)[C@H](CCC(N)=O)NC(=O)[C@@H](NC(=O)[C@H](Cc1ccccc1)NC(=O)CCCCCNC(=O)CN1CCN(CC(=O)O)CCN(CC(=O)O)CCN(CC(=O)O)CC1)C(C)C)C(=O)N[C@@H](CCC(=O)O)C(=O)N1CCC[C@H]1C(=O)N[C@@H](CC(=O)O)C(=O)N[C@H](C(=O)N[C@@H](CO)C(=O)N[C@@H](CCC(N)=O)C(=O)N[C@H](C(=O)N[C@@H](CCC(N)=O)C(=O)N[C@@H](CC(=O)O)C(=O)N1CCC[C@H]1C(=O)N[C@@H](CC(N)=O)C(=O)N[C@@H](CC(=O)O)C(=O)N[C@@H](CCC(N)=O)C(=O)N[C@@H](Cc1ccc(O)cc1)C(=O)N[C@@H](CCC(=O)O)C(=O)N1CCC[C@H]1C(=O)N[C@@H](Cc1ccccc1)C(=O)O)C(C)C)C(C)C [copper-64 labelled]	dynamic PET	BALB/c mice	intravenous	blood clearance t1/2	~8 min
COC(=O)C[C@](O)(CCCC(C)(C)OC(C)=O)C(=O)O[C@@H]1C(OC)=C[C@]23CCCN2CCc2cc4c(cc2[C@H]13)OCO4		CD1 mouse, pancreas	subcutaneous, 1 mg/kg, 8 h	tissue concentration	4.2 ng/mL
O=C(NC1CCCCC1)Oc1cccc(-c2cccc(CO)c2)c1		rat plasma		log hydrolysis rate constant	-1.81
CC(C)(CCCC/C=C/CCCCCC(C)(C)C(=O)O)C(=O)O		dogs plasma		plasma protein binding	> 99.8%
CC(C)C[C@H](NC(=O)[C@H](CCCCN)NC(=O)[C@H](CCC(=O)O)NC(=O)[C@H](C)NC(=O)[C@@H](NC(=O)[C@H](CCCCN)NC(=O)[C@H](CC(=O)O)NC(=O)[C@H](Cc1ccc(O)cc1)NC(=O)[C@H](Cc1ccccc1)NC(=O)[C@H](C)NC(=O)[C@H](CCCCN)NC(=O)[C@H](CC(C)C)NC(=O)[C@H](Cc1c[nH]c2ccccc12)NC(=O)[C@@H](N)CC(=O)O)C(C)C)C(=O)N[C@@H](CCCCN)C(=O)N[C@@H](CCC(=O)O)C(=O)N[C@@H](C)C(=O)N[C@@H](Cc1ccccc1)C(=O)N1CCC[C@H]1C(=O)N[C@@H](CC(=O)O)C(=O)N[C@@H](Cc1c[nH]c2ccccc12)C(=O)N[C@@H](C)C(=O)N[C@@H](CCCCN)C(=O)N[C@@H](C)C(=O)N[C@@H](C)C(=O)N[C@@H](Cc1ccc(O)cc1)C(=O)N[C@@H](CC(=O)O)C(=O)N[C@@H](CCCCN)C(=O)N[C@@H](C)C(=O)N[C@@H](C)C(=O)N[C@@H](CCC(=O)O)C(=O)N[C@@H](CCCCN)C(=O)N[C@@H](C)C(=O)N[C@@H](CCCCN)C(=O)N[C@@H](CCC(=O)O)C(=O)N[C@@H](C)C(=O)N[C@@H](C)C(=O)O		cynomolgus monkey female, plasma	intravenous infusion, 75 mg/kg every other day, day 27	clearance	0.167 mL/min/kg
CC[C@H](C)[C@H](NC(=O)[C@H](Cc1ccccc1)NC(=O)[C@H](CC(=O)O)NC(=O)[C@H](CN)NC(=O)[C@H](Cc1ccccc1)NC(=O)[C@H](Cc1ccccc1)NC(=O)[C@H](CCCCN)NC(=O)[C@H](CN)NC(=O)[C@H](CC(C)C)NC(=O)[C@H](CCCNC(=N)N)NC(=O)[C@H](CCSC)NC(=O)[C@H](C)N)C(=O)N[C@@H](CC(C)C)C(=O)N[C@@H](CCC(N)=O)C(=O)N[C@@H](CCCNC(=N)N)C(=O)N[C@@H](CCCCN)C(=O)N[C@@H](CCCCN)C(=O)O	circular dichroism	20% TFE in PBS	200 µM, pH 7.4, 25 °C	helicity	14.7%
CC[C@H](C)C(=O)N1CCC(NC(=O)Nc2ccc(OC(F)(F)F)c(F)c2)CC1		healthy volunteers	oral, 2 mg single dose, ventricular extrasystoles	subjects with extrasystoles TEAE	16.7%
CCOP(=O)(OCC)OCCCCOC(=O)CC1=C(C)/C(=C/c2ccc([S+](C)[O-])cc2)c2ccc(F)cc21 (stereo not drawn)		rat, muscle	oral, 50 mg/kg	Tmax	0.5 h
CC(C)[C@H](NC(=O)CNC(=O)[C@H](CCC(N)=O)NC(=O)[C@H](C)N)C(=O)O		human	1 mg/kg single dose	subjects with any adverse event	16.7%
C1=CCCC=CCC1.C1=CCCC=CCC1.[Cl][Hg-]([Cl])[Cl].[Cl][Hg-]([Cl])[Cl].[Pt+][c]1ccccc1P(=Nc1ccccc1)(c1ccccc1)c1ccccc1.[Pt+][c]1ccccc1P(=Nc1ccccc1)(c1ccccc1)c1ccccc1		rat	20 µM	absorption rate constant	2 h⁻¹
COc1cc(NC(=O)C(=O)c2c(C)n(Cc3ccc(Cl)cc3)c3ccc(C)cc23)ccn1		cynomolgus monkey, male, plasma	intravenous, 1 mg/kg	t1/2	13.7 h and 14.5 h and 12.6 h and 24.9 h and 11.8 h and 19.5 h
C=Cc1cc(O)cc2nc(-c3ccc(O)c([76Br])c3)oc12		female C57BL/6 mouse, uterus	3 h, high dose	tissue uptake	0.09 ± 0.02 %ID/g
[2H]C([2H])([2H])C([2H])([2H])C([2H])([2H])OC(C(=O)OC1CCNCC1)(c1ccccc1)c1ccccc1	measured: vomiting	healthy Japanese male	oral, 10 mg, 16 days, multiple ascending dose	adverse events	14.3%
[11CH3]n1c(=O)n(CCCO)c(=O)c2c1nc(Oc1cccc(OC(F)(F)F)c1)n2Cc1ccc(Cl)cc1	ex vivo biodistribution	Sprague Dawley rat, heart	30 min post injection	tracer uptake	1.04 ± 0.05 %ID/g
CC(C)[C@H](NC(=O)CNC(=O)[C@H](CCC(N)=O)NC(=O)[C@H](C)N)C(=O)O		healthy male volunteers	intravenous, 15 mg/kg/h, 2 h, with: LPS 2 ng/kg	subjects with any AE	25%
CC(=CCC(O)C(C)=Cc1csc(C)n1)CC=CC(C)C(O)C(C)C(=O)C(C)(C)C(O)CC(=O)O (stereo not drawn)		human, plasma	intravenous infusion, 8.5 mg/m2 KOS-1584, 3 h infusion, cycle 1	Cmax	2.27 ± 1.03 ng/mL
CC(C)C[C@H](NC(=O)[C@H](Cc1ccccc1)NC(=O)CNC(=O)C/C=C(\F)[C@@H](N)Cc1ccc(O)cc1)C(=O)O		BALB/c mice, brain	intravenous, 50 mg/kg	time to undetectable level	≤ 20 min
CC(C)C1=C(OC(=O)C(C)(C)C)C(=O)C2=C(C=C[C@H]3C(C)(C)CCC[C@]23C)C1=O		Artemia salina, artificial seawater	100 ppm, 24 h	mortality	52.2%
C[C@H]1C(OC(=O)C(Cl)Cl)O[C@@H]2O[C@@]3(C)CC[C@H]4[C@H](C)CCC1[C@@]24OO3 (stereo partly drawn)		Tg(fli1:EGFP) zebrafish embryos	10 µg/mL, up to 48 hpf	dead embryos	0 count
CCNc1cc2[o+]c3cc(NCC)c(C)cc3c(-c3ccccc3C(=O)OCCOCC[18F])c2cc1C	PET	rat	55 min p.i.	heart to liver ratio	~4.5
